{"data": "Published values gathered from unrelated publications", "note": "Numbered parts are unrelated; each lists some results of a single study. Changes are numbered by the printed parent chain."}
{"data": "Set 1", "target": "Interferon regulatory factor 7, full length, phosphomimetic (IRF7, Homo sapiens, UniProt Q92985, residues 1-503, S471D/S472D/S475D/S476D/S477D/S483D/S484D/S487D)", "method": "protein-binding microarray", "form": "double-stranded DNA, one strand shown", "medium": "in vitro", "tested at": "2200 nM top", "setting": "60-bp whole probe", "with": "salmon DNA 0.4 mg/ml", "reference": "random background probes", "reading": "higher = stronger binding", "all sequences stand within": "GCCTAGCAC … GTCTTGATTCGCTTGACGCTGCTG", "Target sequence (chain)": "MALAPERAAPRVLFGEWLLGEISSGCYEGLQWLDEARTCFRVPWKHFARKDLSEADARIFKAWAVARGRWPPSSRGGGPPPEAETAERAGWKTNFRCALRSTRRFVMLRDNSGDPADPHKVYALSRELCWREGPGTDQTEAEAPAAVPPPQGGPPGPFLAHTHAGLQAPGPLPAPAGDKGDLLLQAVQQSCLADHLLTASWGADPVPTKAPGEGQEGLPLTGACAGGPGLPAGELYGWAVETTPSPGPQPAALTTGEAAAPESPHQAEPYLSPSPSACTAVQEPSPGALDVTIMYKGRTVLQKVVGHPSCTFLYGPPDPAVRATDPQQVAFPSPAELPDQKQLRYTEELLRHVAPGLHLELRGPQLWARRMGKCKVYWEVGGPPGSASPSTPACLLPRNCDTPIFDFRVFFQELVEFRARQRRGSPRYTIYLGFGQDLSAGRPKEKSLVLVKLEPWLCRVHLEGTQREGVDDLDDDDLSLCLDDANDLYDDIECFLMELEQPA"}
{"Oligonucleotide": "GACGGTATCGGGACTGGGGATGTGCTA", "fitted relative affinity [z-score]": -0.402}
{"Oligonucleotide": "GACGGTATCGGGTTTAGGGACGTGCTA", "fitted relative affinity [z-score]": -0.0246}
{"Oligonucleotide": "TTAGATATCAGTCTTGATTAGTGCTAG", "fitted relative affinity [z-score]": -0.152}
{"Oligonucleotide": "GACGAAATGGGGTATCGAGACGTGCTA", "fitted relative affinity [z-score]": 0.358}
{"Oligonucleotide": "TCACCTTTATGTACTCTCACTGTGCTA", "fitted relative affinity [z-score]": 1.56}
{"Oligonucleotide": "GACGGCATCGGGACTGGGGACGTGCTA", "fitted relative affinity [z-score]": -0.874}
{"Oligonucleotide": "GACGATATCGGGTATCGTGACGTGCTA", "fitted relative affinity [z-score]": 0.344}
{"Oligonucleotide": "TAAGGACTGGGTTTCGGTTAGTGCTAG", "fitted relative affinity [z-score]": 3.89}
{"Oligonucleotide": "TCAACTCTGGAGGTTGAGACTGTGCTA", "fitted relative affinity [z-score]": -0.487}
{"Oligonucleotide": "AAATTCTATTCTCTCAATTTGTGCTAG", "fitted relative affinity [z-score]": 1.32}
{"Oligonucleotide": "TTAGGACTGGGGTATCGGTGAGTGCTA", "fitted relative affinity [z-score]": -0.65}
{"Oligonucleotide": "GACGGTCTCAGACTGGAGACGTGCTAG", "fitted relative affinity [z-score]": -0.418}
{"Oligonucleotide": "GACGGTATCGACTATGGGGACGTGCTA", "fitted relative affinity [z-score]": -0.365}
{"Oligonucleotide": "TTAGGACTGGATTTCGGTTAGTGCTAG", "fitted relative affinity [z-score]": 2.21}
{"Oligonucleotide": "TTAGTTATCCTACTGCTTTAGTGCTAG", "fitted relative affinity [z-score]": 1.15}
{"Oligonucleotide": "ATTTGTAAGTACATTAACTCGTGCTAG", "fitted relative affinity [z-score]": 0.44}
{"Oligonucleotide": "GACGATTTCAGACGGGAGACGTGCTAG", "fitted relative affinity [z-score]": 0.184}
{"Oligonucleotide": "TTAGGTATCGGTCTCGGTAAGTGCTAG", "fitted relative affinity [z-score]": 0.505}
{"Oligonucleotide": "TTTGGTCTCCTTATCCTTTAGTGCTAG", "fitted relative affinity [z-score]": 1.66}
{"data": "Set 2", "target": "TAR DNA-binding protein 43, full length, His tag (TARDBP, Homo sapiens, UniProt Q13148, residues 1-414)", "method": "RNA Bind-n-Seq", "form": "RNA", "medium": "in vitro", "tested at": "20 nM", "setting": "6-mer, flanks averaged, single round", "with": "150 mM KCl", "reference": "input library", "reading": "higher = stronger binding"}
{"Oligonucleotide": "AUAUUG", "6-mer enrichment (R)": 0.659}
{"Oligonucleotide": "AAACCU", "6-mer enrichment (R)": 0.576}
{"Oligonucleotide": "AGGGCC", "6-mer enrichment (R)": 2.09}
{"Oligonucleotide": "GACUUG", "6-mer enrichment (R)": 0.858}
{"Oligonucleotide": "CCGUCA", "6-mer enrichment (R)": 0.62}
{"Oligonucleotide": "AGCGUG", "6-mer enrichment (R)": 1.45}
{"Oligonucleotide": "UGGUCG", "6-mer enrichment (R)": 1.23}
{"Oligonucleotide": "GACACU", "6-mer enrichment (R)": 0.744}
{"Oligonucleotide": "CGCAUC", "6-mer enrichment (R)": 0.628}
{"Oligonucleotide": "CAGUUG", "6-mer enrichment (R)": 0.798}
{"Oligonucleotide": "UUUACU", "6-mer enrichment (R)": 0.593}
{"Oligonucleotide": "CUCCUA", "6-mer enrichment (R)": 0.583}
{"Oligonucleotide": "GAUCAU", "6-mer enrichment (R)": 0.61}
{"data": "Set 3", "target": "CCNB2, cyclin fold, Cln2 fusion (human)", "method": "yeast growth competition, sequencing", "medium": "yeast", "setting": "strong parent motif", "reference": "not given", "reading": "higher = stronger binding", "parent": "BRCA2 docking peptide (human); PSIKRNLLNEFDR"}
{"Substitution": "PSIKNNLLNEFDR [R5N]", "normalised enrichment score": 0.0721}
{"Substitution": "PDIKRNLLNEFDR [S2D]", "normalised enrichment score": 3.65}
{"Substitution": "PSIKRNLLNEFKR [D12K]", "normalised enrichment score": 1.77}
{"Substitution": "PSIKRNLLNEFTR [D12T]", "normalised enrichment score": 2.92}
{"Substitution": "PSIKRNLLNEFDV [R13V]", "normalised enrichment score": 3.71}
{"Substitution": "PSIKYNLLNEFDR [R5Y]", "normalised enrichment score": 0.266}
{"Substitution": "PSIKRHLLNEFDR [N6H]", "normalised enrichment score": 0.609}
{"Substitution": "PSIKRNLLNTFDR [E10T]", "normalised enrichment score": -0.641}
{"Substitution": "PKIKRNLLNEFDR [S2K]", "normalised enrichment score": 3.06}
{"Substitution": "TSIKRNLLNEFDR [P1T]", "normalised enrichment score": 3.69}
{"Substitution": "PSIKRNLLNEFDT [R13T]", "normalised enrichment score": 3.87}
{"Substitution": "PSIKRNVLNEFDR [L7V]", "normalised enrichment score": -0.0325}
{"Substitution": "PSIKRNLLNENDR [F11N]", "normalised enrichment score": -0.248}
{"data": "Further values, each from its own experiment"}
{"Substance": "PhoQ, residues 284 288 289 292 302 303 ALASRC", "target": "PhoP, residues 12 14 15 18 19 LHATL (Escherichia coli, UniProt P23836)", "assay": "Sort-seq, item: YFP reporter", "test system": "E. coli", "setting": "PhoQ-PhoP variant library, with: 10 µM Mg2+", "scale": "reference: high Mg2+ state, higher = stronger signaling", "measurement": "fold induction", "result": 15.9}
{"note": "Repeated from above (set 1):"}
{"Oligonucleotide": "TTAGATATCAGTCTTGATTAGTGCTAG", "fitted relative affinity [z-score]": -0.152}
{"Oligonucleotide": "GACGAAATGGGGTATCGAGACGTGCTA", "fitted relative affinity [z-score]": 0.358}
{"Oligonucleotide": "TCACCTTTATGTACTCTCACTGTGCTA", "fitted relative affinity [z-score]": 1.56}
{"Oligonucleotide": "GACGGCATCGGGACTGGGGACGTGCTA", "fitted relative affinity [z-score]": -0.874}
{"Oligonucleotide": "GACGATATCGGGTATCGTGACGTGCTA", "fitted relative affinity [z-score]": 0.344}
{"Oligonucleotide": "TAAGGACTGGGTTTCGGTTAGTGCTAG", "fitted relative affinity [z-score]": 3.89}
{"Oligonucleotide": "TCAACTCTGGAGGTTGAGACTGTGCTA", "fitted relative affinity [z-score]": -0.487}
